Earlier results as cited in several papers.
Compare with care: the assays were run in different laboratories. pEC50, pIC50: −log10 of the molar value. In brackets after ≈: the same amount, converted by molar mass.

Cc1nc(N(C)C(=O)Cc2ccc(-c3ccccn3)cc2)sc1S(N)(=O)=O
mortality (HSV-2; mouse; oral, 15 or 60 mg/kg three times daily, day 3 to 7 post infection): 10%

CC(=O)c1ccc(NC(=O)CSc2nc(-c3ccccc3Cl)ns2)cc1
pIC50 (Trypanosoma cruzi; Tulahuen C4 LacZ): < 4.49

interferon alpha
replicon RNA level (Norwalk virus; viral replication; HG23 Norwalk virus replicon cells; 20 units): ~100 copies per cell

c1ccc(-c2ccc(-c3nc4ccccc4[nH]3)cc2)cc1
pIC50 (Trypanosoma cruzi; Tulahuen C4 LacZ): < 4.49

CO/N=C(\C(=O)N[C@@H]1C(=O)N2C(C(=O)O)=C(CSc3nc(=O)c(=O)[nH]n3C)CS[C@H]12)c1csc(N)n1
MIC (Acinetobacter baumannii; OXA-225 producing): 64 µg/mL (≈ 115 µM)

CO[C@@H]1[C@H](OP(=O)(OC[C@H]2O[C@@H](n3cnc4c(N)ncnc43)C[C@@H]2O)SCOC(=O)OC(C)C)[C@@H](CO)O[C@H]1n1ccc(=O)[nH]c1=O (some centres unmarked)
HCV RNA reduction (hepatitis C virus; chronic HCV patients, phase I; dose not given): ≤ 1.9 log10

NC(=O)c1ncn([C@@H]2O[C@H](CO)[C@@H](O)[C@H]2O)n1
pEC50 (influenza B virus; viral replication, MTT; Singapore): 5.29

CCCCCCCCCC(F)(P(=O)(O)O)P(=O)(O)O
pEC50 (Trypanosoma cruzi; growth; amastigotes): < 5.00

c1ccc(CNc2nc(Nc3ccccc3)nc3ccccc23)cc1
pIC50 (Trypanosoma cruzi; Tulahuen C4 LacZ): 5.82

Cn1c(Cn2ccc(C(F)(F)F)c(Oc3cc(Cl)cc(C#N)c3)c2=O)n[nH]c1=O
selectivity index (HIV-1; IIIB wild type; baseline: CC50 over EC50): > 36800

CCOc1ccc2cc(-c3nn(CC4CCN(C)CC4)c4ncnc(N)c34)ccc2c1
protection against pup mortality (Neospora caninum; pregnant mice; dose not given): 87%

CC(C)(C)NC(=O)N[C@H](C(=O)N1C[C@H]2[C@@H]([C@H]1C(=O)NC(CC1CCC1)C(=O)C(N)=O)C2(C)C)C(C)(C)C (some centres unmarked)
cure rate (hepatitis C virus; HCV-infected patients; dose not given, with: ribavirin and pegylated interferon alpha): 60 to 80%

CCOC(=O)c1c(C)n(-c2ccccc2)c2ccc(OC(=O)c3cc(OC)c(OC)c(OC)c3)cc12
pIC50 (Trypanosoma cruzi; Tulahuen C4 LacZ): 4.88

Cc1ccc(C(C)C)cc1O
MIC90 (bacterial isolates; canine otitis externa, multidrug-resistant): 200 to 2290 µg/mL (≈ 1330 to 15300 µM)

Repeated from above:
Cc1nc(N(C)C(=O)Cc2ccc(-c3ccccn3)cc2)sc1S(N)(=O)=O
mortality (HSV-2; mouse; oral, 15 or 60 mg/kg three times daily, day 3 to 7 post infection): 10%
